Experimental data of several laboratories.
Compare with care: the assays were run in different laboratories. Several values in a cell are separate wells, animals, samples, runs or records. ± marks the error that the study gave.
Cell line: A549

O=C1C=CC(=O)c2c(O)ccc(O)c21  selectivity ratio (cytotoxicity, MTT; reference: IC50 MRC5 over IC50 A549): 4.52
C=CCc1cc2c(c(OC)c1OC)OCO2  GI50 (cell growth or viability, MTT; 72 h): > 250 µM
Cc1cccc(O)c1C(=O)OCC1(O)C(Nc2ccc3c(c2)Cc2ccccc2-3)C(N)C(NC(=O)N(C)C)(C(C)O)C1(C)O (centres unmarked)  EC50 (cell growth or viability): 0.324 µM
CC(C)C[C@@H](NC(=O)[C@@H](C)NC(=O)[C@@H](CC(C)C)NC(=O)[C@@H](CCCCN)NC(=O)[C@H](N)CCCCN)C(=O)N[C@H](Cc1c[nH]cn1)C(=O)N[C@H](C)C(=O)N[C@H](CC(C)C)C(=O)N[C@H](CCCCN)C(=O)N[C@H](CCCCN)C(=O)N[C@H](Cc1c[nH]c2ccccc12)C(=O)N[C@H](CC(C)C)C(=O)N[C@H](Cc1c[nH]cn1)C(=O)N[C@H](C)C(=O)N[C@H](CC(C)C)C(=O)N[C@H](CCCCN)C(=O)N[C@H](CCCCN)C(=O)N[C@H](CC(C)C)C(=O)N[C@H](C)C(=O)N[C@H](Cc1c[nH]cn1)C(=O)N[C@H](CC(C)C)C(=O)N[C@H](C)C(=O)N[C@H](CC(C)C)C(=O)N[C@H](CCCCN)C(=O)N[C@H](CCCCN)C(N)=O  EC50 (cytotoxicity, MTT; four hours, 37 °C, serum-free medium): 4.54 ± 0.3 µM
C[P+](c1ccccc1)(c1ccccc1)c1ccccc1  GI50 (cell growth or viability, MTT; 72 h): 1.32 µM
NS(=O)(=O)c1ccc2c(c1)[C@@H]1[C@@H](Cl)[C@H](Sc3ccccc3[N+](=O)[O-])C[C@H]1[C@H](c1ccc(Cl)cc1)N2  apoptotic cells (Annexin V/PI flow cytometry; 20 µM, 48 h, hypoxia): 57.4%
CCCc1cc(OC)c2c(c1OC)OCO2  GI50 (cell growth or viability, MTT; 72 h): > 250 µM
CC(C)C[C@@H](NC(=O)[C@@H](C)NC(=O)[C@@H](CC(C)C)NC(=O)[C@@H](CCCCN)NC(=O)[C@H](N)CCCCN)C(=O)N[C@H](C)C(=O)N[C@H](CC(C)C)C(=O)N[C@H](C)C(=O)N[C@H](CCCCN)C(=O)N[C@H](CCCCN)C(=O)N[C@H](Cc1c[nH]c2ccccc12)C(=O)N[C@H](CC(C)C)C(=O)N[C@H](C)C(=O)N[C@H](CC(C)C)C(=O)N[C@H](C)C(=O)N[C@H](CCCCN)C(=O)N[C@H](CCCCN)C(=O)N[C@H](CC(C)C)C(=O)N[C@H](C)C(=O)N[C@H](CC(C)C)C(=O)N[C@H](C)C(=O)N[C@H](CC(C)C)C(=O)N[C@H](C)C(=O)N[C@H](CCCCN)C(=O)N[C@H](CCCCN)C(N)=O  EC50 (cytotoxicity, MTT; four hours, 37 °C, serum-free medium): 5.23 ± 0.35 µM
Cc1[nH]c(=O)c(CNC(=O)c2ccc(C(F)(F)F)nc2)c2c1CCCC2  selectivity index (MTT; reference: A549 IC50 over M. tuberculosis MIC): > 111
CC(C)C(O)C(NC(=O)[C@H](Cc1ccc(O)cc1)NC(=O)C(Cc1ccc(O)c(Cl)c1)[N+](C)(C)C)C(=O)N[C@@H](C)C(=O)O (some centres unmarked)  antiproliferative activity (100 µM): inactive
CCOP(=O)(OCC)OCCCCOC(=O)CC1=C(C)C(=Cc2ccc([S+](C)[O-])cc2)c2ccc(F)cc21 (centres unmarked)  IC50 increase (cell viability; added: 3-methyladenine 5 mM; reference: without 3-methyladenine): 50%
CC(C)[C@H]1NC(=O)[C@H](CO)NC(=O)c2cc3cc(c2)C(=O)NC[C@H](NC(=O)[C@H](Cc2c[nH]cn2)NC(=O)[C@H](Cc2ccc(C(F)(F)P(=O)(O)O)cc2)NC(=O)[C@@H]2CCCN2C1=O)C(=O)N[C@@H](Cc1ccccc1)C(=O)N[C@@H](Cc1ccc2ccccc2c1)C(=O)N[C@@H](CCCNC(=N)N)C(=O)N[C@@H](CCCNC(=N)N)C(=O)N[C@@H](CCCNC(=N)N)C(=O)N[C@@H](CCCNC(=N)N)C(=O)N[C@H](C(=O)N[C@@H](CCCCN)C(N)=O)CNC3=O  concentration of effect reversal (tyrosine phosphorylation, anti-pY immunoblot; 2 h): > 1 µM
CC1=CC[C@]2(C(=O)O[C@H]3OC[C@@H](O)[C@@H](O)[C@@H]3OS(=O)(=O)O)CC[C@]3(C)C(CCC4[C@@]5(C)CC[C@H](O)C(C)(C)C5CC[C@]43C)C2[C@H]1C (some centres unmarked)  necrotic cells (annexin V/PI flow cytometry; concentration not given, 48 h; reference: untreated): 4.6 fold
COc1ccccc1/C=C1\SC(=O)N(CC(=O)Nc2ccc(C(=O)Nc3ccc([N+](=O)[O-])cc3)cc2)C1=O  selectivity index (MTT; reference: IC50 Vero over IC50 A549): 16.4
CCCc1cc(OC)c(OC)c(OC)c1OC  GI50 (cell growth or viability, MTT; 72 h): > 250 µM
CCN1CC2(COC)CCC(O)C34C5CC6C(OC)CC(O)(C5C6OC(C)=O)C(C(OC)C23)C14 (centres unmarked)  IC50 (cell growth or viability, MTT): 24.6 µM
CCCCCCCCC=CCCCCCCCC(=O)OC(COC(=O)Cc1c(C)n(C(=O)c2ccc(Cl)cc2)c2ccc(OC)cc12)COP(=O)([O-])OCC[N+](C)(C)C (centres unmarked)  selectivity index (SRB; reference: MCF-10A IC50 over A549 IC50): 4.31
CC(C)C[C@@H](NC(=O)[C@@H](C)NC(=O)[C@@H](CCCCN)NC(=O)[C@@H](CC(C)C)NC(=O)[C@@H](C)NC(=O)[C@H]1CCCN1C(=O)[C@@H](CC(C)C)NC(=O)[C@@H](Cc1c[nH]c2ccccc12)NC(=O)[C@@H](CCCCN)NC(=O)[C@@H](C)NC(=O)[C@@H](CC(C)C)NC(=O)[C@@H](C)NC(=O)[C@@H](Cc1c[nH]cn1)NC(=O)[C@@H](CCCCN)NC(=O)[C@@H](CC(C)C)NC(=O)[C@@H](C)NC(=O)[C@@H](CCCCN)NC(=O)[C@H](N)CCCCN)C(=O)N[C@H](C)C(=O)N[C@H](Cc1c[nH]cn1)C(=O)N[C@H](CCCCN)C(=O)N[C@H](CC(C)C)C(=O)N[C@H](C)C(=O)N[C@H](CCCCN)C(=O)N[C@H](CCCCN)C(N)=O  EC50 (cytotoxicity, MTT; four hours, 37 °C, serum-free medium): 7.58 ± 0.42 µM
COc1cc(C)c(OC)c2c1OCO2  GI50 (cell growth or viability, MTT; 72 h): > 250 µM
CCCCCCCCCCCC[C@@H](O)[C@H]1CC[C@H]([C@H](O)CCCCCCCCCCCCCCC2=C[C@H](C)OC2=O)O1  apoptotic cells (Annexin V/7-AAD flow cytometry; concentration not given, highest level): 15%
CC(C)=CCC/C(C)=C/C[P+](c1ccccc1)(c1ccccc1)c1ccccc1  GI50 (cell growth or viability, MTT; 72 h): 0.58 µM
CCCCN(CCCC)CC(O)COc1c2ccoc2c(OC)c2oc(CC)cc(=O)c12 (centres unmarked)  selectivity index (MTT; reference: IC50 HaCaT over IC50 A549): 1.65
CCN1CC2(COC)CCC(O)C34C5CC6C(OC)CC(O)(C5C6O)C(C(OC)C23)C14 (centres unmarked)  IC50 (cell growth or viability, MTT): 17.1 µM
C=CCc1cc(OC)c(OC)c(OC)c1OC  GI50 (cell growth or viability, MTT; 72 h): > 250 µM
Cc1cccc(-c2cccc(C)n2)n1.[Cl-].[Cl-].[Ru+2].c1ccc(-c2ccccn2)nc1.c1ccc(-c2ccccn2)nc1  phototoxicity index (resazurin; reference: dark EC50 over light EC50): > 36.1 and 36.1
COc1ccc(NC(=O)c2ccc(NC(=O)CN3C(=O)S/C(=C\c4ccccc4OC)C3=O)cc2)cc1  selectivity index (MTT; reference: IC50 Vero over IC50 A549): 4.97
